{"data": "Results from different studies", "F2": "Prothrombin (F2, Homo sapiens, UniProt P00734)", "note": "Protocols differ between the studies behind these lines. ± marks the error that the study gave.", "chain of UniProt Q460N5 (whole entry, looked up)": "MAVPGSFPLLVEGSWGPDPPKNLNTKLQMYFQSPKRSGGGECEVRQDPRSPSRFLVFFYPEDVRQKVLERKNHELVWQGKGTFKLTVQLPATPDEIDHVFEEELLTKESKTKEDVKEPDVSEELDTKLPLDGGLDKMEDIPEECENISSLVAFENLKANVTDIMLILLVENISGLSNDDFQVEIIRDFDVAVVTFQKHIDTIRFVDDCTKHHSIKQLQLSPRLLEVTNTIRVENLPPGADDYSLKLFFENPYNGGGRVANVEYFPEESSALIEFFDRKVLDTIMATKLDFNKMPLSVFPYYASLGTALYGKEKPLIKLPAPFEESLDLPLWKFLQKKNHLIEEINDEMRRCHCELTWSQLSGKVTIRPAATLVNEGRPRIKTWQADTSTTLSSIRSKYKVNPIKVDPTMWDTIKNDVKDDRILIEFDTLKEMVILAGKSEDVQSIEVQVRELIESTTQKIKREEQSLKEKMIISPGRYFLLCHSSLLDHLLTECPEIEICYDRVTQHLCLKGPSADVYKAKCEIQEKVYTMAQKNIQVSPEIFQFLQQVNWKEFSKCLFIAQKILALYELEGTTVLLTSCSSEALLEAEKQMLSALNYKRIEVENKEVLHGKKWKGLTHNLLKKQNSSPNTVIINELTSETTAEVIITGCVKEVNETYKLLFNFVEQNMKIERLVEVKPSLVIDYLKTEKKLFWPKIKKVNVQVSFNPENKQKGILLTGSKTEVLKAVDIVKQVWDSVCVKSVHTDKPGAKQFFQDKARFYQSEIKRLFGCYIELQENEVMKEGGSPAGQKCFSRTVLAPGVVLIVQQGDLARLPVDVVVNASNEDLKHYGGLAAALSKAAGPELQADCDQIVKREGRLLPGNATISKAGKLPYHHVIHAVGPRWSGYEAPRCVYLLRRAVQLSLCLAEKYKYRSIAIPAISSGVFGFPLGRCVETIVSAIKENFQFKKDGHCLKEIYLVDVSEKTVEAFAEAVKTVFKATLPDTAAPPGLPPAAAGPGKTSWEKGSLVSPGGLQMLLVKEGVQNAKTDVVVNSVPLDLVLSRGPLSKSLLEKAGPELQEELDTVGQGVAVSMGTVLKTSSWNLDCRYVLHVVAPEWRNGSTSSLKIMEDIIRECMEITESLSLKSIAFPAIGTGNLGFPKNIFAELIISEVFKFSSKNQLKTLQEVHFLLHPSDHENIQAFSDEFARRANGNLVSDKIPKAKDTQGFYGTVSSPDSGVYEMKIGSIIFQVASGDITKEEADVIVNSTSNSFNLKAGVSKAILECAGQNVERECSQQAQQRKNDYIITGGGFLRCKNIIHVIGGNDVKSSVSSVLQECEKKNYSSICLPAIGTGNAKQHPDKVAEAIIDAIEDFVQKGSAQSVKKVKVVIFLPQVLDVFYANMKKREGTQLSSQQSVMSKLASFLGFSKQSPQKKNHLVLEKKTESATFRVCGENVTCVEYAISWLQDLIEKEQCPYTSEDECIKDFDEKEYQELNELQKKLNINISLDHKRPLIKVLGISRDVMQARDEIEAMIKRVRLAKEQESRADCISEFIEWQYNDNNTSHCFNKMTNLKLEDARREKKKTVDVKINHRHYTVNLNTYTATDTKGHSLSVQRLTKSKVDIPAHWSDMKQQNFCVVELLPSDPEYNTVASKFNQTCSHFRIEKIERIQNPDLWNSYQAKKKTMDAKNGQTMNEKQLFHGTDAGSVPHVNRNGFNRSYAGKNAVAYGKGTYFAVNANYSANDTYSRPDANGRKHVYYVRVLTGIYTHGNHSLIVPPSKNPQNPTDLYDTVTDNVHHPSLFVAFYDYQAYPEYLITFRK"}
{"Substance": "chicoric acid", "assay": "UPLC", "system": "broiler chicken, plasma", "setting": "oral gavage, 20 mg/kg", "quantity": "AUC(0-t)", "value": "416 ± 128 ng·h/mL"}
{"Substance": "liquiritin apioside", "tested on": "F2", "assay": "enzyme activity, inhibitor, fluorogenic", "setting": "20 min, 37 °C, added: Z-GGR-AMC 50 µM", "quantity": "IC50", "value": "> 100 µM"}
{"Substance": "β-melibiose", "tested on": "Frizzled-8 (Xenopus laevis, UniProt Q91719)", "assay": "biolayer interferometry", "setting": "25 °C, immobilised biotinylated carbohydrate", "quantity": "Kd", "value": "0.726 µM"}
{"Substance": "maraviroc", "system": "black CYP3A5 intermediate metabolizers, plasma", "setting": "300 mg twice daily", "quantity": "AUC(0-12h)", "value": "2950 ng·h/mL"}
{"Substance": "vorinostat glucuronide", "system": "patients, plasma", "setting": "oral, 200 mg vorinostat three times daily, 3 days, added: idarubicin", "quantity": "Cmax", "value": "1770 nM"}
{"Substance": "isoliquiritin apioside", "tested on": "F2", "assay": "enzyme activity, inhibitor, fluorogenic", "setting": "20 min, 37 °C, added: Z-GGR-AMC 50 µM", "quantity": "IC50", "value": "37.9 ± 5.78 µM"}
{"Substance": "ADP-ribose", "tested on": "PARP14 (Homo sapiens, UniProt Q460N5)", "assay": "isothermal titration calorimetry", "setting": "no inhibitor", "quantity": "Kd", "value": "7.8 µM"}
{"Substance": "α-poly-L-aspartic acid", "system": "Tris-Cl buffer", "setting": "pH 7.5, room temperature", "quantity": "thermodynamic solubility", "value": "> 1000 mg/mL"}
{"Substance": "deucravacitinib", "assay": "multiple ascending dose", "system": "healthy human", "setting": "oral, 4 mg twice daily", "quantity": "subjects with infections", "value": "44.4%"}
{"Substance": "(+)-catechin gallate", "assay": "transwell, HBSS", "system": "basolateral compartment, no cells", "setting": "4 h, pH 7.4", "quantity": "mass recovered", "value": "not detected"}
{"Substance": "semaglutide", "assay": "measured: probably related to drug", "system": "human, safety analysis set", "setting": "concentration not given, 32 weeks, run-in", "quantity": "participants with adverse events", "value": "50%"}
{"Substance": "deucravacitinib", "system": "healthy Chinese subjects", "setting": "dose not given", "quantity": "subjects with related TEAE", "value": "50%"}
{"note": "A few entries again:"}
{"Substance": "ADP-ribose", "tested on": "PARP14 (Homo sapiens, UniProt Q460N5)", "assay": "isothermal titration calorimetry", "setting": "no inhibitor", "quantity": "Kd", "value": "7.8 µM"}
